# Results collected from several papers.
# “And” joins repeats or separate records; there may be more than shown. pIC50: −log10 of the molar value.
# PIK3CA: Phosphatidylinositol 4,5-bisphosphate 3-kinase catalytic subunit alpha isoform (PIK3CA, Homo sapiens, UniProt P42336)
# UniProt P42336, sequence (whole entry, looked up): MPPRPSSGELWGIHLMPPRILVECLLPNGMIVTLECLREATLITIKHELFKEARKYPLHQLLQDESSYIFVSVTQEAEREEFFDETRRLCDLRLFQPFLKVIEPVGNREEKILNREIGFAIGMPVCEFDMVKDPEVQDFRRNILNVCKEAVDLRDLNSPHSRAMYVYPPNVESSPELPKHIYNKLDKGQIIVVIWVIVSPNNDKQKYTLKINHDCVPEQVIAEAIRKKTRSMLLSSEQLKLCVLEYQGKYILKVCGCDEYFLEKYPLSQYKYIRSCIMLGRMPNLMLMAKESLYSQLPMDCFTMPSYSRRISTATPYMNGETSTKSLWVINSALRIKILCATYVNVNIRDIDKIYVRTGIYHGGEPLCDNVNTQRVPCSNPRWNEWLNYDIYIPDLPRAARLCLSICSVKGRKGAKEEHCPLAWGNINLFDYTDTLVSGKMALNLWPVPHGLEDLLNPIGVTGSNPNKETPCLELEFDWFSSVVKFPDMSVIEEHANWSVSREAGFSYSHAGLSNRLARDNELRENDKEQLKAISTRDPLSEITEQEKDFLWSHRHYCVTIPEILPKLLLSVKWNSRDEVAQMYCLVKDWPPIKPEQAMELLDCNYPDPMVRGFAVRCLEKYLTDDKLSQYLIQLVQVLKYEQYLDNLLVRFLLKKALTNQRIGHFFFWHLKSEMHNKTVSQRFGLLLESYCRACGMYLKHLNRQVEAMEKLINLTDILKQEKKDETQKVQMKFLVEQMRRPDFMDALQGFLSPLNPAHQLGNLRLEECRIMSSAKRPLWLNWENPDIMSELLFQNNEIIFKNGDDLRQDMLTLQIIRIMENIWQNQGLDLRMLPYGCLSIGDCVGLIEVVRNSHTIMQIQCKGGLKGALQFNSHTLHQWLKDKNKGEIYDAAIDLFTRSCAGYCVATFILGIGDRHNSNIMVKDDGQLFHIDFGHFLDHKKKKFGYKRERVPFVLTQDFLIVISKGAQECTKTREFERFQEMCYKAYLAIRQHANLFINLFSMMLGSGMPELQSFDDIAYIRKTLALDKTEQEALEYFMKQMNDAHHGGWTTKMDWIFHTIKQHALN
# DYRK1A: Dual specificity tyrosine-phosphorylation-regulated kinase 1A (DYRK1A, Homo sapiens, UniProt Q13627)
# PIK3CD: Phosphatidylinositol 4,5-bisphosphate 3-kinase catalytic subunit delta isoform (PIK3CD, Homo sapiens, UniProt O00329)
# UniProt O00329, sequence (whole entry, looked up): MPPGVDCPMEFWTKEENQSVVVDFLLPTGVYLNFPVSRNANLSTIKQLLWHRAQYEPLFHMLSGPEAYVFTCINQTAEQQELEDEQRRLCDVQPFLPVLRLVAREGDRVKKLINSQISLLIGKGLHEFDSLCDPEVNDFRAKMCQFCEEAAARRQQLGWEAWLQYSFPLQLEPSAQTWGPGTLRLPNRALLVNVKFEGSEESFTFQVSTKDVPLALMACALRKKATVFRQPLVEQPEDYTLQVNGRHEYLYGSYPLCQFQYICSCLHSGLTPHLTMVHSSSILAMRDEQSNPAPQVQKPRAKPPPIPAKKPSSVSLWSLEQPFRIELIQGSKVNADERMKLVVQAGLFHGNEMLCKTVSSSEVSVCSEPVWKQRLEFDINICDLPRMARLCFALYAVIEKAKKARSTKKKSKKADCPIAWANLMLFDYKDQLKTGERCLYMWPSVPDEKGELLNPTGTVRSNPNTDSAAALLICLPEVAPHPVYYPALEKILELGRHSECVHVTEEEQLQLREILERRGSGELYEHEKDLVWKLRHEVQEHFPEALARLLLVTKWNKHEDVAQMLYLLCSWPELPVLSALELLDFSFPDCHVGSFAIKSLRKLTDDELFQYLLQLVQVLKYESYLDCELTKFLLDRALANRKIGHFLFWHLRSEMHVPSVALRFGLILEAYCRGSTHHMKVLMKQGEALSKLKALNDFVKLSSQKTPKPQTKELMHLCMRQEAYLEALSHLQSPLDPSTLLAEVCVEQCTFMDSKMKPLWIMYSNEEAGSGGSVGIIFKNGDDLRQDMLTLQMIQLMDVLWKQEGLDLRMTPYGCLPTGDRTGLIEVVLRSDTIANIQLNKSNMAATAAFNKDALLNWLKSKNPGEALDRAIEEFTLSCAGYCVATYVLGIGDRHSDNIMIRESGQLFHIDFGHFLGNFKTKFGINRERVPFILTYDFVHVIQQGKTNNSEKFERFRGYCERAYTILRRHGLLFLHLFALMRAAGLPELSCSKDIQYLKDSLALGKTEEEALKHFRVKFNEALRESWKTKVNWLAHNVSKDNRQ
# AMY2: Pancreatic alpha-amylase (AMY2, Sus scrofa, UniProt P00690)
# UniProt P00690, sequence (whole entry, looked up): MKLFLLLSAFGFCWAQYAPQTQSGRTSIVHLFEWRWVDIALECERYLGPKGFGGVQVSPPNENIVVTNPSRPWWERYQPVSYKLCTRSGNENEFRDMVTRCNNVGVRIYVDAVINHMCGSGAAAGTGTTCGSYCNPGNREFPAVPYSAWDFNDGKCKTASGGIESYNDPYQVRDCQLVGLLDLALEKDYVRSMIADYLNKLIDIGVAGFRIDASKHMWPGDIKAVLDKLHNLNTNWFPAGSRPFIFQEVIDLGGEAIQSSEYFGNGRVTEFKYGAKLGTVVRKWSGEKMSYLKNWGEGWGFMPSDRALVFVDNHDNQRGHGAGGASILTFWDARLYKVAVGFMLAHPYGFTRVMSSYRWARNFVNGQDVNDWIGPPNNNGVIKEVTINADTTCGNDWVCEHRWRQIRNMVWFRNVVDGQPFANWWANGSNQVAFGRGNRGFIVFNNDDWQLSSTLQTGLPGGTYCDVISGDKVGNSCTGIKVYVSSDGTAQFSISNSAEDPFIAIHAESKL
# Dhodh: Dihydroorotate dehydrogenase (quinone), mitochondrial (Dhodh, Mus musculus, UniProt O35435)
# UniProt O35435, sequence (whole entry, looked up): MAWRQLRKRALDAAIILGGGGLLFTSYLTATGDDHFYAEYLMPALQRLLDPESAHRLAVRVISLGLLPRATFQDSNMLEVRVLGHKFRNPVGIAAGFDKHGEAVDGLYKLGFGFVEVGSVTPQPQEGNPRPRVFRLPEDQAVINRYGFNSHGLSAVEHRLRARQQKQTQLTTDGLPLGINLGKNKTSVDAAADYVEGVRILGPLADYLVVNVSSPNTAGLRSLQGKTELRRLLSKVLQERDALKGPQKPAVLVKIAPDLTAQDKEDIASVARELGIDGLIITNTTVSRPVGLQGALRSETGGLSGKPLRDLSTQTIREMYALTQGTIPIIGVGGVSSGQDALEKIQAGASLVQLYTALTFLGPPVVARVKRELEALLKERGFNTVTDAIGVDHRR
# CA9: Carbonic anhydrase 9 (CA9, Homo sapiens, UniProt Q16790)
# CHEK1: Serine/threonine-protein kinase Chk1 (CHEK1, Homo sapiens, UniProt O14757)
# UniProt O14757, sequence (whole entry, looked up): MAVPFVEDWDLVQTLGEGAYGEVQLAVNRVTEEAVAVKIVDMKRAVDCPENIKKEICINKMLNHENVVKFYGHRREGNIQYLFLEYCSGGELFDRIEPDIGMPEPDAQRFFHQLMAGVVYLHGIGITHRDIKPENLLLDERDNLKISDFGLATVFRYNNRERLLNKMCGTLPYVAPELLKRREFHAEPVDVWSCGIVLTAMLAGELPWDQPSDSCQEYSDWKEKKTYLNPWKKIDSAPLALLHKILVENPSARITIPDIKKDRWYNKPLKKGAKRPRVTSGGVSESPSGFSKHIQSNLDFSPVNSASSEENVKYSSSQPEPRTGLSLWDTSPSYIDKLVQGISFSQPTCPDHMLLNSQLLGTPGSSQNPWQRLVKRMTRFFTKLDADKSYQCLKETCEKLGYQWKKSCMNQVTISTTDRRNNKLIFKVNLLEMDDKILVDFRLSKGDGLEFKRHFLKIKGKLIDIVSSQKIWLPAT
# FLT3 ITD: Receptor-type tyrosine-protein kinase FLT3 (FLT3, Homo sapiens, UniProt P36888, ITD)
# rep main protease: Replicase polyprotein 1ab, main protease (rep, Porcine epidemic diarrhea virus, UniProt P0C6Y4)
# UniProt P21397, sequence (whole entry, looked up): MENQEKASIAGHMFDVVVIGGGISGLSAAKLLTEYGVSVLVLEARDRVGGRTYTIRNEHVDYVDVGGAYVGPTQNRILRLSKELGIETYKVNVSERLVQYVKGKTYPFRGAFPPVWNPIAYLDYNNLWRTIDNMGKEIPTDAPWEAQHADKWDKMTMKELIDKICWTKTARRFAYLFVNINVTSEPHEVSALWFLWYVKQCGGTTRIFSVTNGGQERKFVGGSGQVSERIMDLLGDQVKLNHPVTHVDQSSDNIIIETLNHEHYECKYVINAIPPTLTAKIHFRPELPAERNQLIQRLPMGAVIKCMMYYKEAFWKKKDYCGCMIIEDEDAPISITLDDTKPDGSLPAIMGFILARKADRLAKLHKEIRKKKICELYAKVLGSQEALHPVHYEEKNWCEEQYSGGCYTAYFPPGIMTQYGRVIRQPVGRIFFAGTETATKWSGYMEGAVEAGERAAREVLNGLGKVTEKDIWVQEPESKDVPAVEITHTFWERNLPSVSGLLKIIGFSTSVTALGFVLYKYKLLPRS
Compound,target,test,setting,pIC50
CC(C)c1cccc(C(C)C)c1N=C1C(=O)N(Cc2cccc(Cl)c2)c2ccccc21,PIK3CA,"enzyme activity, inhibitor, ADP detection",,7.40
CCC1(C#N)CCN(c2nccc(-c3cnn4ncccc34)n2)CC1,DYRK1A,"cell-free assay, TR-FRET",,6.19
O=C1C(=Nc2cccc(Cl)c2)c2ccccc2N1Cc1ccc([N+](=O)[O-])cc1,PIK3CD,"enzyme activity, inhibitor, ADP detection",,7.60
O=[N+]([O-])c1cccc(/C=N/N=C/c2cccc([N+](=O)[O-])c2)c1,AMY2,"enzyme activity, inhibitor",,3.40
Cn1nc2c(=O)n(C3CC3)ccc2c1[C@](O)(c1cnc(C(F)(F)F)c(Cl)c1)C(F)(F)F,Dhodh,"enzyme activity, inhibitor, absorbance",,5.15
Cc1ccc(-c2ccccc2C(=O)NC[C@@]2(C3CC3)NC(=O)NC2=O)cc1,"A disintegrin and metalloproteinase with thrombospondin motifs 7 (Homo sapiens, UniProt Q9UKP4)","enzyme activity, inhibitor, FRET",,7.22
CC(C)(C)OC(=O)N1CCN(C(=O)c2ccnc(S(N)(=O)=O)c2)C(c2cccc(Cl)c2)C1 (stereo not shown),CA9,"enzyme activity, inhibitor",,7.30
Cc1cc(OCC(N)=O)c(C)cc1CN1CCOCC1,"ADRB2 (Homo sapiens, UniProt P07550)","calcium signal, antagonist, fluorescence",,4.89
COc1ccc(-c2cc(=O)c3cccc(Nc4ncc5cc(C(=O)N(C)C)n(C6CCCC6)c5n4)c3o2)cc1,"Cyclin-dependent kinase 4, with cyclin D1 (CDK4, Homo sapiens, UniProt P11802)","enzyme activity, inhibitor, radiometric",,< 5.00
Cc1nn(C)c2ncc(C(=O)Nc3ccccc3)c(Cl)c12,"60 kDa heat shock protein, mitochondrial (Homo sapiens, UniProt P10809)","ATPase activity, inhibitor",,< 3.60
Cc1n[nH]c2ccc3nc(-c4ccc(C(=O)NCCN(C)C)cc4F)c4c(c3c12)CCCC4,"FLT3 (Homo sapiens, UniProt P36888)","enzyme activity, inhibitor",,7.55
COc1cc2ncnc(Nc3ccc4c(c3)/C(=C/c3ccccc3)C(=O)N4C)c2cc1OC,PIK3CA,"enzyme activity, inhibitor, ADP detection",,6.47
CC(C)[C@H]1CN(c2nccc(-c3cnn4ncccc34)n2)CCN1,DYRK1A,"cell-free assay, TR-FRET",,6.20
CC(=O)Nc1cccc(-c2[nH]nc3c2Cc2cc(C(N)=O)ccc2-3)c1,CHEK1,"enzyme activity, inhibitor",,7.23
Fc1ccccc1/C=N/N=C/c1ccccc1F,AMY2,"enzyme activity, inhibitor",,3.41
Cn1nc2c(=O)n(C3CC3)ncc2c1[C@](N)(c1ccc(C(F)(F)F)c(Cl)c1)C1CC1,Dhodh,"enzyme activity, inhibitor, absorbance",,5.57
Cc1ccc(-c2[nH]nc3c2Cc2cc(CNC4CCC(O)CC4)ccc2-3)s1 (stereo not shown),CHEK1,"enzyme activity, inhibitor",,6.30
O=C(Nc1nccs1)c1ccc(-c2nc3ccc4[nH]ncc4c3c3c2CCCC3)cc1,FLT3 ITD,"enzyme activity, inhibitor",,6.42
NS(=O)(=O)c1ccc(NC(=O)CSC2=NC(=Cc3ccco3)C(=O)N2c2ccccc2)cc1,CA9,"enzyme activity, inhibitor",,6.75
O=C(Cc1ccc2c(c1)NC(=O)c1ccc(-c3ccc(Cl)c(F)c3)cc1N2)Nc1ccc(N2CCOCC2)cc1,CHEK1,"enzyme activity, inhibitor",,6.11
CN1CCN(C(=O)[C@H](CCCN[C@@H]2C[C@H]2c2ccc(F)cc2)NC(=O)c2ccc(-n3ccnn3)cc2)CC1,"MAOA (Homo sapiens, UniProt P21397)","enzyme activity, inhibitor",with preincubation,4.57 and < 4.60
CC(Nc1ccc(Nc2ccccc2)cc1)C(=O)Nc1ccc(S(N)(=O)=O)cc1 (stereo not shown),CA9,"enzyme activity, inhibitor",,7.40
COc1ccc(C(=O)NCc2ccc(O)c(O)c2)cc1,rep main protease,"enzyme activity, inhibitor, FRET",,4.95
O=C1C(=Nc2ccccc2Br)c2ccccc2N1Cc1ccccc1,PIK3CA,"enzyme activity, inhibitor, ADP detection",,7.02
OC1CCC(NCc2ccc3c(c2)Cc2c-3n[nH]c2-c2ccoc2)CC1 (stereo not shown),CHEK1,"enzyme activity, inhibitor",,6.57
Cc1ccc2[nH]c(=O)c(CNC3CCCCC3)cc2c1,"ADRA1B (Homo sapiens, UniProt P35368, V197I)","calcium signal, antagonist",,4.88
N#C[C@@]12C[C@@H]1[C@@H](n1cnc3c(N[C@@H](C4CCC4)C4CC4)nc(I)nc31)[C@H](O)[C@@H]2O,"CYP2C19 (Homo sapiens, UniProt P33261)","enzyme activity, inhibitor",,< 4.70 and 4.65
Cc1n[nH]c2ccc3nc(-c4ccc(C(=O)NCCN(C)C)nc4)c4c(c3c12)CCCCC4,FLT3 ITD,"enzyme activity, inhibitor",,6.48
CCc1ccc(N=C2C(=O)N(Cc3ccccc3)c3ccccc32)cc1,PIK3CA,"enzyme activity, inhibitor, ADP detection",,7.18
COC(=O)c1ccc(-c2[nH]nc3c2Cc2cc(CNC4CCC(O)CC4)ccc2-3)o1 (stereo not shown),CHEK1,"enzyme activity, inhibitor",,6.41
Cc1cc(C(=O)N2CCCCC2C)ccc1NC(=O)c1nccc2c(S(N)(=O)=O)cccc12 (stereo not shown),CA9,"enzyme activity, inhibitor",,7.07
Brc1ccccc1/C=N/N=C/c1ccccc1Br,AMY2,"enzyme activity, inhibitor",,3.55
Cc1nc2c(F)cc(-c3ccnc(Nc4ccc5c(=O)cc(N6CCOCC6)oc5c4)n3)cc2n1C(C)C,PIK3CD,"enzyme activity, inhibitor, radiometric",,6.37
Cc1nn(-c2ccc(S(N)(=O)=O)cc2)c(C)c1CCC(=O)Nc1ccc(-c2cn(C)nn2)cc1,CA9,"enzyme activity, inhibitor",,6.33
O=C1Nc2ccccc2Nc2cc(-c3ccccc3C(=O)O)ccc21,CHEK1,"enzyme activity, inhibitor",,< 5.00
O=C(CSc1nc2ccccc2cc1C=Nn1c(S)nnc1-c1ccccc1)Nc1ccc(Cl)cc1,"PPO3 (Agaricus bisporus, UniProt C7FF04)","enzyme activity, inhibitor",,4.51
Cc1nc(Nc2ccc3c(c2)/C(=C/c2ccccc2C)C(=O)N3C)c2ccccc2n1,PIK3CD,"enzyme activity, inhibitor, ADP detection",,6.85
COc1cc(N=C2C(=O)Nc3ccccc32)cc(OC)c1,PIK3CA,"enzyme activity, inhibitor, ADP detection",,7.27
CN(C)C(=O)c1cc2cnc(Nc3ccc4c(=O)cc(N5CCOCC5)oc4c3)nc2n1C1CCCC1,PIK3CD,"enzyme activity, inhibitor, radiometric",,7.60
Cn1c(C(=O)NCc2cc(O)c(O)c(Br)c2)cc2ccccc21,rep main protease,"enzyme activity, inhibitor, FRET",,5.25
COc1ccc(Cl)cc1C(=O)NCCc1ccc(S(=O)(=O)NC(=O)NC2CCCCC2)cc1,"SLC22A6 (Homo sapiens, UniProt Q4U2R8, M31A)","transporter uptake, inhibitor, fluorescence",,4.94
NS(=O)(=O)c1ccc(F)c(CNC(=O)Nc2ccc(C(=O)N3CCCC3c3ccccc3)cc2)c1 (stereo not shown),CA9,"enzyme activity, inhibitor",,4.91
O=C1C(=Nc2ccc(Cl)cc2Br)c2ccccc2N1Cc1ccc(Br)cc1,"PIK3CG (Homo sapiens, UniProt P48736)","enzyme activity, inhibitor, ADP detection",,8.66
COc1cc(CNC(=O)c2ccccc2C)cc(Br)c1OC,"Replicase polyprotein 1ab, papain-like protease (rep, Porcine epidemic diarrhea virus, UniProt P0C6Y4)","enzyme activity, inhibitor, FRET",,5.23
N#Cc1cnc(NC(=O)Nc2ccc(C(=O)O)cc2OC(F)(F)F)cn1,CHEK1,"enzyme activity, inhibitor",,6.77
Clc1ccc(C2(c3ccc(-c4cn[nH]c4)cc3)CCNCC2)cc1,"LATS2 (Homo sapiens, UniProt Q9NRM7)","enzyme activity, inhibitor, radiometric",,7.24
Cc1cc(C(=O)Oc2ccc(NC(=O)c3sccc3C)cc2)ccc1S(N)(=O)=O,CA9,"enzyme activity, inhibitor",,6.62
CC(C)c1cccc(C(C)C)c1N=C1C(=O)N(Cc2ccccc2)c2ccccc21,PIK3CD,"enzyme activity, inhibitor, ADP detection",,6.70
COc1cc2ncnc(N(C)c3ccc4c(c3)/C(=C/c3ccccc3)C(=O)N4C)c2cc1OC (mixture of isomers),PIK3CA,"enzyme activity, inhibitor, ADP detection",,6.52
c1cnn2ncc(-c3ccnc(N4C[C@@H]5C[C@H]4CO5)n3)c2c1,DYRK1A,"cell-free assay, TR-FRET",,5.55
CN1CCN(c2ccc(Nc3ncc4cc(C#N)c(=O)n(C5CCCC5)c4n3)cc2)CC1,"MAP3K20 (Homo sapiens, UniProt Q9NYL2)","enzyme activity, inhibitor",,7.73
CC(=O)Nc1ccc2c(c1)CC(C)N2Cc1ccoc1C(=O)Nc1ccc(S(N)(=O)=O)cc1 (stereo not shown),CA9,"enzyme activity, inhibitor",,7.32

# Excerpt of the above:
Compound,target,test,setting,pIC50
CCc1ccc(N=C2C(=O)N(Cc3ccccc3)c3ccccc32)cc1,PIK3CA,"enzyme activity, inhibitor, ADP detection",,7.18
Cc1ccc2[nH]c(=O)c(CNC3CCCCC3)cc2c1,"ADRA1B (Homo sapiens, UniProt P35368, V197I)","calcium signal, antagonist",,4.88
Cc1cc(C(=O)Oc2ccc(NC(=O)c3sccc3C)cc2)ccc1S(N)(=O)=O,CA9,"enzyme activity, inhibitor",,6.62
CC(C)c1cccc(C(C)C)c1N=C1C(=O)N(Cc2ccccc2)c2ccccc21,PIK3CD,"enzyme activity, inhibitor, ADP detection",,6.70
Cn1c(C(=O)NCc2cc(O)c(O)c(Br)c2)cc2ccccc21,rep main protease,"enzyme activity, inhibitor, FRET",,5.25
O=C(Nc1nccs1)c1ccc(-c2nc3ccc4[nH]ncc4c3c3c2CCCC3)cc1,FLT3 ITD,"enzyme activity, inhibitor",,6.42
CC(=O)Nc1cccc(-c2[nH]nc3c2Cc2cc(C(N)=O)ccc2-3)c1,CHEK1,"enzyme activity, inhibitor",,7.23
CC(C)(C)OC(=O)N1CCN(C(=O)c2ccnc(S(N)(=O)=O)c2)C(c2cccc(Cl)c2)C1 (stereo not shown),CA9,"enzyme activity, inhibitor",,7.30
